Experimental data from different studies.
Compare with care: the assays were run in different laboratories. Several values in a cell are separate wells, animals, samples, runs or records. ± marks the error that the study gave.

| Compound | test | system | setting | how to read | quantity | value |
| --- | --- | --- | --- | --- | --- | --- |
| O=C1Nc2ccc(Cl)cc2[C@@](C#CC2CC2)(C(F)(F)F)O1 |  | human, plasma | oral, 600 mg, day 30, median |  | trough plasma concentration | 2310 ng/mL |
| Cc1nc2cccc(OCC(C)(C)C(=O)NC(C)C)c2c(N)c1C(=O)O |  | male Swiss albino CD-1 mouse, bone marrow | oral, 1000 mg/kg, 24 h |  | micronucleated NCE per 2000 PCE | 1 |
| [18F]c1ccc(-c2ccc3c(c2)[nH]c2ccncc23)cn1 | microPET/CT imaging | B6SJL mouse, normal, heart | intravenous, 5 min |  | SUV | 0.912 ± 0.278 |
| NC(=O)c1cnc2[nH]ccc2c1N[C@@H]1[C@@H]2CC3C[C@H]1C[C@@](O)(C3)C2 |  | healthy human volunteers, plasma | oral, dose not given, population PK model, bootstrap median |  | central volume | 253 L |
| Cn1cnc2c(F)c(Nc3ccc(Br)cc3Cl)c(C(=O)NOCCO)cc21 |  | human, plasma | oral, dose not given, zero-order absorption |  | central volume of distribution | 38.8 L |
| C=CCN1CC(=O)N2[C@@H](Cc3ccc(O)cc3F)C(=O)N(Cc3cccc(N4CC(N5CCN(CC)CC5)C4)n3)C[C@@H]2N1C(=O)NCc1ccccc1 | item: Diarrhea | advanced solid tumour patients | oral, 120 mg twice daily, expansion part, any grade |  | treatment-related adverse events | 20% |
| CN1C[C@H](COc2nccc3c(NCc4ccco4)cc(Cl)nc23)OC1=O |  | rat Crl:CD(SD) male | oral, 100 mg/kg, single dose |  | adverse necropsy findings | negative |
| CCn1cc(C(=O)N2CCOCC2)c(=O)c2cc(NC3Cc4ccccc4C3)cnc21 |  | human male, fed, plasma | oral, 900 mg twice daily, day 7, tablet, arithmetic mean |  | AUC(0-12h) | 47700 ng·h/mL |
| CC(C(=O)NCC(=O)NCC(CNC(=O)CNC(=O)C(C)N1CCN(CC(=O)[O-])CCN(CC(=O)[O-])CCN(CC(=O)[O-])CC1)(CNC(=O)CNC(=O)C(C)N1CCN(CC(=O)[O-])CCN(CC(=O)[O-])CCN(CC(=O)[O-])CC1)CNC(=O)CNC(=O)C(C)N1CCN(CC(=O)[O-])CCN(CC(=O)[O-])CCN(CC(=O)[O-])CC1)N1CCN(CC(=O)[O-])CCN(CC(=O)[O-])CCN(CC(=O)[O-])CC1.[Gd+3].[Gd+3].[Gd+3].[Gd+3] (stereo not drawn) | ICP-MS | cynomolgus monkey, feces | 2 days post-injection | reference: dose | cumulative fecal excretion | 0.2% |
| C[C@@H](Oc1ccc(S(C)(=O)=O)cc1C(=O)N1C[C@@H]2C[C@]2(c2cc(C(F)(F)F)on2)C1)C(F)(F)F |  | young humans, plasma | oral, 50 mg once daily, single dose, geometric mean |  | Vz/F | 372 L |
| CC[C@H](C)CCCCC(=O)N[C@@H](CCN)C(=O)N[C@H](C(=O)N[C@@H](CCN)C(=O)N[C@H]1CCNC(=O)[C@H]([C@@H](C)O)NC(=O)[C@H](CCN)NC(=O)[C@H](CCN)NC(=O)[C@H](CC(C)C)NC(=O)[C@@H](Cc2ccccc2)NC(=O)[C@H](CCN)NC1=O)[C@@H](C)O |  | human, mild renal insufficiency, urine | intravenous, 0.75 mg/kg, 0-12 h, arithmetic mean |  | urinary excretion | 1.53% |
| Cc1nc(-c2ccc(OCC(C)C)c(C#N)c2)sc1C(=O)O |  | KM mouse, chronic hyperuricaemia model | dose not given, day 22 |  | body weight | 31.9 g and 40 g and 43.6 g and 33.3 g and 36.1 g and 37.6 g |
| N[C@@H](C[18F])C(=O)O | radio-TLC | human serum | 2 h |  | radiochemical purity | ≥ 93% |
| Cc1ccc([C@@H]2O[C@H](CO)[C@@H](O)[C@H](O)[C@H]2O)cc1Cc1ccc(-c2ccc(F)cc2)s1 |  | Japanese type 2 diabetes patients | 400 mg, day 6, 24 h urine collection | reference: baseline | urinary magnesium excretion change | -9.94 mg |
| COc1cc(Nc2ncc3c(n2)-c2ccc(Cl)cc2C(c2c(F)cccc2OC)=NC3)ccc1C(=O)O | item: Cough, all grades | cancer patients, phase 1/2 | oral, dose not given, with: pembrolizumab |  | patients with adverse event | 21% |
| Cc1ccc(Sc2ccccc2N2CCNCC2)c(C)c1 | item: blood in urine | healthy adult men | oral, 20 mg daily, 12 days |  | participants with TEAE | 0% |
| CC(C)(C(=O)N1CCOc2c(C#N)cncc2C1)C(F)F | item: ventricular extrasystoles | healthy humans, both sexes | oral, 30 mg single dose |  | subjects with TEAE | 0% |
| COc1ccc2c(=O)n(C)c(-c3ccccc3)nc2c1 |  | Sprague-Dawley rat, male, small intestine | oral, 30 mg/kg, 4 h | reference: small intestine over plasma | tissue/plasma ratio | 1830 |
| COc1c(N2C[C@@H]3CCCN[C@@H]3C2)c(F)cc2c(=O)c(C(=O)O)cn(C3CC3)c12 |  | healthy volunteers | oral, 400 mg single dose, day 5, 1.50 h |  | QTcI change from baseline | 0.4 ms |
| Cc1cc(Nc2ccc(S(F)(F)(F)(F)F)cc2)n2nc(C(C)(F)F)nc2n1 |  | Plasmodium vivax malaria patients | oral, 600 mg |  | adverse event Chills | 0% |

| Compound | test | system | setting | how to read | quantity | value |
| --- | --- | --- | --- | --- | --- | --- |
| OC[C@H]1O[C@@H](c2ccc(Cl)c(Cc3ccc(O[C@H]4CCOC4)cc3)c2)[C@H](O)[C@@H](O)[C@@H]1O |  | Japanese type 1 diabetes patients, blood | 10 mg, day 28 | reference: baseline | change in Phosphate | 0.1 mg/dL |
| NC1(C(=O)N[C@@H](CCO)c2ccc(Cl)cc2)CCN(c2nc[nH]c3nccc2-3)CC1 |  | metastatic CRPC patients | 320 mg b.i.d., any grade, treatment-related, with: enzalutamide 160 mg daily |  | incidence of Blindness | 0% |
| CC[C@H](C)[C@H](NC(C)=O)C(=O)N[C@H]1CSSC[C@@H](C(=O)N[C@H](C(N)=O)[C@@H](C)O)NC(=O)[C@H](CCCNC(=N)N)NC(=O)[C@H](Cc2c[nH]cn2)NC(=O)[C@H](C)NC(=O)CNC(=O)[C@H](Cc2c[nH]c3ccccc23)NC(=O)[C@H](CC(=O)O)NC(=O)[C@H](CCC(N)=O)NC(=O)[C@H](Cc2c[nH]c3ccccc23)NC(=O)[C@H](C(C)C)NC1=O | isocratic RP-HPLC, C18 | 32% acetonitrile, phosphate pH 7.4, 1% TFA | 25 °C |  | retention factor | 0.959 ± 0.008 |
| CNC(=O)c1ccc(-c2cnc3ncc(Cc4ccc5ncccc5c4)n3n2)cc1F | item: Dyspnea | gastric cancer patients | oral, 600 mg twice daily, expansion cohort, grade 3-4 |  | patients with adverse event | 0% |
| Cl.[2H]C([2H])([2H])CC(=O)c1cnc(NC(=O)C2CC2)cc1Nc1cccc(-c2ncn(C([2H])([2H])[2H])n2)c1OC | geometric mean | human | 17.5 mg single dose, fasted, liquid |  | CL/F | 9.1 L/h |
| COc1cc(C)c(-c2c(C)cc(OC)c3c(=O)cc(-c4ccc(N(C)C)cc4)oc23)c2oc(-c3ccc(N(C)C)cc3)cc(=O)c12 | reverse phase HPLC | DMSO stock solution | 25 mg/mL, 6 months, -20 °C |  | purity | 94.2% |
| NS(=O)(=O)c1ccc(CNc2ccnc(Nc3cccc(CN4CCOCC4)c3)n2)cc1 | PAMPA | PBS | 5 h, pH 7.4 |  | effective permeability | 0.456 ×10⁻⁶ cm/s |
| CCN1/C(=C/C(C)=O)Sc2ccc(F)cc21 |  | cynomolgus monkey | oral, 10 mg/kg, 4 h post-dose | reference: pre-dose | diastolic blood pressure change | 114 ± 14.1% |
| O=C1NCCc2nc(OCc3cccc(F)c3)ccc21 | item: Miosis | Sprague-Dawley rat male | oral, 100 mg/kg, 30 min | direction not given | Irwin test score | 0 |
| Cc1cc(-c2nccc3c2ccn3CC(=O)Nc2ccc(-c3cnccn3)cn2)ccn1 |  | human | 5 mg once daily, multiple ascending dose |  | subjects with Epistaxis adverse event | 0% |
| O=C(O)CCC(=O)O.[2H]C([2H])([2H])Oc1cc(C)c2[nH]ccc2c1CN1CC[C@@H](C2CC2)C[C@H]1c1ccc(C(=O)O)cc1 |  | human, plasma | 100 mg twice daily, day 10, multiple ascending dose, median |  | Tmax | 2 h |
| CC=CC1CCC(C2CCC(CCC)CC2)CC1 (stereo not drawn) |  | rat, fetus | 1000 ng/mL in perfusate, middle dose, mixture of 21 LCMs |  | fetal accumulation | 0.664 ± 0.239 ng/g |
| CCCCCN1C[C@H](O)[C@@H](O)[C@H](O)[C@@H]1CO | LC-MS/MS | Hexb-/- mice, female, brain | 300 mg/kg/day |  | mean brain concentration | 274 ng/g |
| CCCC1CCC(C2CCC(c3cc(F)c(F)c(F)c3)CC2)CC1 (stereo not drawn) |  | rat, fetus | 1000 ng/mL in perfusate, middle dose, mixture of 21 LCMs |  | fetal accumulation | 0.249 ± 0.672 ng/g |
| CCn1c(=O)c2c(nc(/C=C/c3ccc(OC)c(OC)c3)n2C)n(CC)c1=O | HPLC | solution, dark | before light exposure |  | purity | 99.4% |
| Cc1cn(-c2cc(NC(=O)c3ccc(C)c(Nc4nccc(-c5cccnc5)n4)c3)cc(C(F)(F)F)c2)cn1 | population PK model, typical value | human, both sexes, plasma | oral, dose not given |  | central volume of distribution (V1) | 557 L |
| CCc1cc(C(=O)NC)c2nccc(N3CCc4c(cc(Cn5ccnc5)cc4-c4cn(C)nc4C(F)(F)F)C3=O)c2c1 |  | Sprague Dawley rat | oral, 100 mg/kg once daily, 7 days |  | brain weight | 1.87 ± 0.07 g |
| CC(=O)N[C@@H](CC(N)=O)C(=O)N[C@@H](CCCNC(=N)N)C(=O)N[C@@H](CC(C)C)C(=O)N[C@H]1CSSC[C@@H](C(=O)N[C@H](C(N)=O)[C@@H](C)O)NC(=O)[C@H](CCCNC(=N)N)NC(=O)[C@H](Cc2c[nH]cn2)NC(=O)[C@H](C)NC(=O)CNC(=O)[C@H](Cc2c[nH]c3ccccc23)NC(=O)[C@H](CC(=O)O)NC(=O)[C@H](CCC(N)=O)NC(=O)[C@H](Cc2c[nH]c3ccccc23)NC(=O)[C@H](C(C)C)NC1=O | RP-HPLC, C18 | 28% acetonitrile isocratic | pH 7.4 |  | retention factor | 1.469 ± 0.009 |
| O=C(Nc1nc2cccc(-c3ccc(CN4CCS(=O)(=O)CC4)cc3)n2n1)C1CC1 |  | rheumatoid arthritis patients | oral, 100 mg twice daily, 4 weeks, TEAE regardless of relatedness |  | patients with Chills | 0% |

A few entries again:
| Compound | test | system | setting | how to read | quantity | value |
| --- | --- | --- | --- | --- | --- | --- |
| CCn1c(=O)c2c(nc(/C=C/c3ccc(OC)c(OC)c3)n2C)n(CC)c1=O | HPLC | solution, dark | before light exposure |  | purity | 99.4% |
| Cc1cn(-c2cc(NC(=O)c3ccc(C)c(Nc4nccc(-c5cccnc5)n4)c3)cc(C(F)(F)F)c2)cn1 | population PK model, typical value | human, both sexes, plasma | oral, dose not given |  | central volume of distribution (V1) | 557 L |
| CCc1cc(C(=O)NC)c2nccc(N3CCc4c(cc(Cn5ccnc5)cc4-c4cn(C)nc4C(F)(F)F)C3=O)c2c1 |  | Sprague Dawley rat | oral, 100 mg/kg once daily, 7 days |  | brain weight | 1.87 ± 0.07 g |
| CC(=O)N[C@@H](CC(N)=O)C(=O)N[C@@H](CCCNC(=N)N)C(=O)N[C@@H](CC(C)C)C(=O)N[C@H]1CSSC[C@@H](C(=O)N[C@H](C(N)=O)[C@@H](C)O)NC(=O)[C@H](CCCNC(=N)N)NC(=O)[C@H](Cc2c[nH]cn2)NC(=O)[C@H](C)NC(=O)CNC(=O)[C@H](Cc2c[nH]c3ccccc23)NC(=O)[C@H](CC(=O)O)NC(=O)[C@H](CCC(N)=O)NC(=O)[C@H](Cc2c[nH]c3ccccc23)NC(=O)[C@H](C(C)C)NC1=O | RP-HPLC, C18 | 28% acetonitrile isocratic | pH 7.4 |  | retention factor | 1.469 ± 0.009 |
